{"data": "Experimental data collected from several papers", "note": "A part holds a random share of what one study measured. Values joined by “and” are separate records of one study, mostly repeats; a detail may differ. Changes are numbered by the printed parent chain. pKi: −log10 of the molar value.", "chain of UniProt O75417 (whole entry, unmodified, looked up)": "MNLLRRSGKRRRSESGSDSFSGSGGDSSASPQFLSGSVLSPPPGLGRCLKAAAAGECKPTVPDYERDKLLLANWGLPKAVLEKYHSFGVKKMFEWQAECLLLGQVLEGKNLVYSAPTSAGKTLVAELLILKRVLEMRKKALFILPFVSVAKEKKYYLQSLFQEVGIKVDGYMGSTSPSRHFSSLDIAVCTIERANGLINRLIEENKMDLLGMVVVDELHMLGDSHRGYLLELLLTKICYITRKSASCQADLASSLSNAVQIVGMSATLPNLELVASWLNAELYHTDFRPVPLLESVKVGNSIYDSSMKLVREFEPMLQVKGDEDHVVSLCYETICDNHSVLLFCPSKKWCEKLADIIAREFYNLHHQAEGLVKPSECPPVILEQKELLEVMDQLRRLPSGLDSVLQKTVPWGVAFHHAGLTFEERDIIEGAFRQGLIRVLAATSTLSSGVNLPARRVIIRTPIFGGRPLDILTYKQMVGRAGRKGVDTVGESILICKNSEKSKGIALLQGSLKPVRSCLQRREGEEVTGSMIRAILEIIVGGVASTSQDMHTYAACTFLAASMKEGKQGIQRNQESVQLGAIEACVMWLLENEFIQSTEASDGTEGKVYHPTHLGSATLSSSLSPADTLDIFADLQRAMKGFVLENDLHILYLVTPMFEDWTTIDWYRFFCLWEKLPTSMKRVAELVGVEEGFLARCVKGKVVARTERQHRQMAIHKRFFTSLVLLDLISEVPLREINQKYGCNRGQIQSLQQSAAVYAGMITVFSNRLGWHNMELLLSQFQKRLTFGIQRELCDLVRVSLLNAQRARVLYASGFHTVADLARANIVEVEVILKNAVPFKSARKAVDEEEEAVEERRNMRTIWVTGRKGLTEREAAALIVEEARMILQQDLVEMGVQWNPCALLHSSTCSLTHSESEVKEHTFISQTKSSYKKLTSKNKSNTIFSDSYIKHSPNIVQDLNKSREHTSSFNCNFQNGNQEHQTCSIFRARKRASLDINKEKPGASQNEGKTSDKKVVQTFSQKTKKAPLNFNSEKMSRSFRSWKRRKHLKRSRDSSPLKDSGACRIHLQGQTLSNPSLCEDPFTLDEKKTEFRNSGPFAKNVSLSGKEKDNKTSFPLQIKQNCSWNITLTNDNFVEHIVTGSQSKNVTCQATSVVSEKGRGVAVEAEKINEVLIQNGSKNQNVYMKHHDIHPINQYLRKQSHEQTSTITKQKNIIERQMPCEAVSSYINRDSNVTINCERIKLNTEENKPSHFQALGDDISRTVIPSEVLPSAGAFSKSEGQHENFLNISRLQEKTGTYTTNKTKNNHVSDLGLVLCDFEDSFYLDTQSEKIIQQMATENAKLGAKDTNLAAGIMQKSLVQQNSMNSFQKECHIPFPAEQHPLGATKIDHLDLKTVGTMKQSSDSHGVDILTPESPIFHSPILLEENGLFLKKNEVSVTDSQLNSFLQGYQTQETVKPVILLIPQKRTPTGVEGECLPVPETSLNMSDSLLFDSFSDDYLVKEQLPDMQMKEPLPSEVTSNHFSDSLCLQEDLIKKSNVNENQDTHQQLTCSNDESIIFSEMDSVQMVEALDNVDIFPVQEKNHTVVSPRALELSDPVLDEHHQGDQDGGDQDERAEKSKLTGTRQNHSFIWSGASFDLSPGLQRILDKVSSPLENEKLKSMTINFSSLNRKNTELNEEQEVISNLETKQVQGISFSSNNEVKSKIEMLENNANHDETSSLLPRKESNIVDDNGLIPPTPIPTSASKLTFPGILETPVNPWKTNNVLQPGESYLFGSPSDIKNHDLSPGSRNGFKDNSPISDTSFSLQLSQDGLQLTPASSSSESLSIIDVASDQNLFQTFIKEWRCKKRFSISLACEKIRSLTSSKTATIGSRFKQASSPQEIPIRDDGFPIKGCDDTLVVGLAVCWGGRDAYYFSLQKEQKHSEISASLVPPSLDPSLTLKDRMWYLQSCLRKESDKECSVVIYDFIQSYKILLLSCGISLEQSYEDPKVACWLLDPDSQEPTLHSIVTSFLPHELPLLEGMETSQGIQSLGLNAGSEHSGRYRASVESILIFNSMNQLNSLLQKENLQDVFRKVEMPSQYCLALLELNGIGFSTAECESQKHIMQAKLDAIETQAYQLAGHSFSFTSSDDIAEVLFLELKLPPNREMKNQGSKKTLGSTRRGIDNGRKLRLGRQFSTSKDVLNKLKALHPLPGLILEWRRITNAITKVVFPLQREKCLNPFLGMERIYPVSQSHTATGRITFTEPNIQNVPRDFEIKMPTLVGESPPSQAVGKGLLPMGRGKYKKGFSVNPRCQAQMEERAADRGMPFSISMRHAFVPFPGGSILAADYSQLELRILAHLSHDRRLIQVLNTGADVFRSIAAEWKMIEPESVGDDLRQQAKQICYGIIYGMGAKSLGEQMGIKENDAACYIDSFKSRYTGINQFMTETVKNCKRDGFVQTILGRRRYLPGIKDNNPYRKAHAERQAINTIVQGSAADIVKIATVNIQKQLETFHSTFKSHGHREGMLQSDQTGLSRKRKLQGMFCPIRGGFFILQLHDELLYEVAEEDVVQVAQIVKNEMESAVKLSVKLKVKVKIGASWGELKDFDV"}
{"data": "Series 1", "target": "inorganic phosphate, free oxyanion", "method": "microfluidic competitive inhibition", "medium": "in vitro, cell-free expressed", "tested at": "not given", "setting": "derived from inhibition constants, unchanged parent 615000 nM", "direction": "lower = stronger binding", "parent": "PafA, mature enzyme, eGFP fusion (Elizabethkingia meningoseptica, UniProt Q9KJX5); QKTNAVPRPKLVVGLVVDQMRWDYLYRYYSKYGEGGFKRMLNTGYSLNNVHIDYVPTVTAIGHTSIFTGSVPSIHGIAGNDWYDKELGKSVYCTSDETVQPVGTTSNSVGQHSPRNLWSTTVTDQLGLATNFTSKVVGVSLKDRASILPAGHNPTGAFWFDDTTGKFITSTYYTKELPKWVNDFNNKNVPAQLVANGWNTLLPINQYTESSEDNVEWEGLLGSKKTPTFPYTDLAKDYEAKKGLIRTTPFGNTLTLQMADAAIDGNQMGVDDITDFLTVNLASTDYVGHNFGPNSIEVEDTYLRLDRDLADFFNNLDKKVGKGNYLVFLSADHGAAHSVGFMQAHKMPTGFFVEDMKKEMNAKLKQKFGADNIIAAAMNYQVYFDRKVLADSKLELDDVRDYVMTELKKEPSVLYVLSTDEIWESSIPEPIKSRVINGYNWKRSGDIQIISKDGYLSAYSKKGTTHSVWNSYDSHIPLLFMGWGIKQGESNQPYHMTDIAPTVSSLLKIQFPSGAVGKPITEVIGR"}
{"Change": "G36A", "phosphate dissociation constant [µM]": 619}
{"Change": "V270A", "phosphate dissociation constant [µM]": 655}
{"Change": "V137A", "phosphate dissociation constant [µM]": 571}
{"Change": "T497G", "phosphate dissociation constant [µM]": 515}
{"Change": "E218G", "phosphate dissociation constant [µM]": 187}
{"Change": "L254G", "phosphate dissociation constant [µM]": 598}
{"Change": "G265V", "phosphate dissociation constant [µM]": 612}
{"Change": "Q1G", "phosphate dissociation constant [µM]": 640}
{"data": "Series 2", "target": "CCND1, cyclin fold, Cln2 fusion (human)", "method": "yeast growth competition, sequencing", "medium": "yeast", "setting": "strong parent motif", "baseline": "not given", "direction": "higher = stronger binding", "parent": "viral docking peptide; KGVKRKLFAEDSS; partner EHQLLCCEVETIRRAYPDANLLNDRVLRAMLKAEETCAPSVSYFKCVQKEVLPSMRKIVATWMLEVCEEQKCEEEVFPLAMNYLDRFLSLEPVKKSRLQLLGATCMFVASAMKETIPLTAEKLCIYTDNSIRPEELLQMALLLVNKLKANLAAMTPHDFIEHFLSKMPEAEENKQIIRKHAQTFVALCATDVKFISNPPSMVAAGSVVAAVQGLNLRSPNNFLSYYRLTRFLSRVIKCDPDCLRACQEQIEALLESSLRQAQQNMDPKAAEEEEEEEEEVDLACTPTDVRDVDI"}
{"Change": "E10F", "normalised enrichment score": 0.474}
{"Change": "G2K", "normalised enrichment score": 2.02}
{"Change": "K6W", "normalised enrichment score": 0.184}
{"Change": "G2R", "normalised enrichment score": 1.8}
{"Change": "K6L", "normalised enrichment score": 0.447}
{"Change": "A9K", "normalised enrichment score": 0.326}
{"Change": "R5A L7A", "normalised enrichment score": 0.11}
{"Change": "G2C", "normalised enrichment score": 2.58}
{"data": "Further values, each from its own experiment", "OGT": "UDP-N-acetylglucosamine--peptide N-acetylglucosaminyltransferase 110 kDa subunit (OGT, Homo sapiens, UniProt O15294)", "chain of UniProt O15294 (whole entry, looked up)": "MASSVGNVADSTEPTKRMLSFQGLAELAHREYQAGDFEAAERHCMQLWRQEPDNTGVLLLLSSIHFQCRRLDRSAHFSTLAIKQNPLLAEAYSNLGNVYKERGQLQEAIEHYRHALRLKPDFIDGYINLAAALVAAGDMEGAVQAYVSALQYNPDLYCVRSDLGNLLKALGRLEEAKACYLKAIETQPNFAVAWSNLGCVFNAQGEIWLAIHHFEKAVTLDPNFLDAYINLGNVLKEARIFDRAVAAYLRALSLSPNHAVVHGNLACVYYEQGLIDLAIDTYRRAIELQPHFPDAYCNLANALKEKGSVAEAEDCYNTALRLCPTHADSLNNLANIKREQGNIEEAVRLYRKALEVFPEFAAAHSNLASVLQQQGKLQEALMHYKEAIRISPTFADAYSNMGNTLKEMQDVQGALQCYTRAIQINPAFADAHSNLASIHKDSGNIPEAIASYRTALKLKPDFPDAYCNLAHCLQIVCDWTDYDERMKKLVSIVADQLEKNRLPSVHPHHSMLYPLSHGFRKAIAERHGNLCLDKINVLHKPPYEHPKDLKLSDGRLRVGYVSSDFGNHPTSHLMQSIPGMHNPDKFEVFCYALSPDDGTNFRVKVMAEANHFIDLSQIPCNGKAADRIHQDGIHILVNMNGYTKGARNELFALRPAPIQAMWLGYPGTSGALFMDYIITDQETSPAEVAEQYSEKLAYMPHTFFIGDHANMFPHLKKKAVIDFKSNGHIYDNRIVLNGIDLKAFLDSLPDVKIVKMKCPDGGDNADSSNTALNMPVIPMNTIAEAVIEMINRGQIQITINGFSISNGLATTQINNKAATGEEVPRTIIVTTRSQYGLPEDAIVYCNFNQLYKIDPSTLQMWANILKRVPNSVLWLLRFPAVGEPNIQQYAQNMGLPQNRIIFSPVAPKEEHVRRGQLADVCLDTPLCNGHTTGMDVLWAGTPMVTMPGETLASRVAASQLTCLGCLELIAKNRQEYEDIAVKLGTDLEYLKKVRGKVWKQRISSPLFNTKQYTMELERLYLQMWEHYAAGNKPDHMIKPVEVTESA"}
{"Substance": "CCOc1ccc(Nc2c3c(nc4ccccc24)CCC3)cc1", "tested on": "Leishmania donovani", "assay": "parasite growth", "system": "DD8 amphotericin B-resistant, promastigotes", "setting": "0.0033 µM", "endpoint": "inhibition", "result": "2% and 1%"}
{"Substance": "KDIRQDYLPFYQITV", "tested on": "OGT", "assay": "binding, phage display NGS", "system": "peptide", "setting": "concentration not given, panning round 3", "how to read": "baseline: input library", "endpoint": "enrichment fold change", "result": 3.84}
{"Substance": "CCCN1CCC[C@@H]2Cc3[nH]ncc3C[C@H]21", "tested on": "DNA polymerase theta, ATPase domain (POLQ, Homo sapiens, UniProt O75417)", "assay": "enzyme activity, inhibitor", "setting": "77 µM", "endpoint": "remaining activity", "result": "99%"}
{"Substance": "VTPKDRYLPKYTITF", "tested on": "OGT", "assay": "binding, phage display NGS", "system": "peptide", "setting": "concentration not given, panning round 3", "how to read": "baseline: input library", "endpoint": "enrichment fold change", "result": 3.65}
{"Substance": "CC1=C(C#N)[C@@H](c2ccc3[nH]nc(C)c3c2)C(C#N)=C(c2ccc(Cl)cc2)N1", "tested on": "DRD5 (Homo sapiens, UniProt P21918)", "assay": "binding, radioligand binding", "endpoint": "pKi", "result": "< 5.00"}
{"Substance": "O=C1CCC(N2Cc3c(ccc4c3OCC43CCN(Cc4ccccc4)CC3)C2=O)C(=O)N1 (stereo not shown)", "system": "rat Sprague Dawley male, plasma", "setting": "intravenous, 1.0 mg/kg", "endpoint": "Vz", "result": "3.65 L/kg and 3.6 L/kg"}
